Results from different studies.
Numbered parts are unrelated; each lists some results of a single study. Positions count from the first letter of the parent shown.

Series 1
Target: TAR DNA-binding protein 43, full length, His tag (TARDBP, Homo sapiens, UniProt Q13148, residues 1-414)
Method: RNA Bind-n-Seq
Molecule type: RNA
Matrix: in vitro
Tested at: 20 nM
Setting: 6-mer, flanks averaged, single round
Together with: 150 mM KCl
Relative to: input library
Reading: higher = stronger binding
Sequence	6-mer enrichment (R)
ACCAUG	0.702
UUACAC	0.603
CACGUC	0.64
UACGGC	0.84
AGCGUG	1.45
GAUCAU	0.61
GACUUG	0.858
GAGAUG	1.46

Series 2
Target: Protein max, full length (MAX, Homo sapiens, UniProt P61244-2, residues 1-151)
Method: protein-binding microarray
Molecule type: double-stranded DNA, one strand shown
Matrix: in vitro
Tested at: not given
Setting: k-mer, scored over probes, only values ≥0.25
Reading: higher = stronger binding
Sequence	E-score
CGGTGCAC	0.281
AAGTCACG	0.362
CCGCGCAC	0.302
ATGCGGTG	0.295
GACGCACA	0.294
CGCATGCC	0.422
GTGTGCAA	0.282
ACGCTTCA	0.298

Mixed results
P1: viral docking peptide; TSVRRALFTGGSD; partner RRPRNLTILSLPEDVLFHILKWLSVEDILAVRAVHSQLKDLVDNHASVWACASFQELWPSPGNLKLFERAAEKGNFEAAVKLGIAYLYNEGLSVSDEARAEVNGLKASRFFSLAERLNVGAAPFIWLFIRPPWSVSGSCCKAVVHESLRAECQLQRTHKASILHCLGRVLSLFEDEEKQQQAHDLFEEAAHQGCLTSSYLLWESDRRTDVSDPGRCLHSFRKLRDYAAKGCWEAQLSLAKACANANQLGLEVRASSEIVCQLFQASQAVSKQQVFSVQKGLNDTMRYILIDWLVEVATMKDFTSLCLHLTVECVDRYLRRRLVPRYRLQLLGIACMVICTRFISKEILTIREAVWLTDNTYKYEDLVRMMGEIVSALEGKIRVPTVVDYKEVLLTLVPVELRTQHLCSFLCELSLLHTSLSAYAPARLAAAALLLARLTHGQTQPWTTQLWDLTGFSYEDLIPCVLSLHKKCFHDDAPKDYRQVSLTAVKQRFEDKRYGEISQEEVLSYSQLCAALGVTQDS
Molecule	target	assay	test system	setting	how to read	endpoint	value
P1 R4K	CCNF, cyclin fold, Cln2 fusion (human)	yeast growth competition, sequencing	yeast	strong parent motif	relative to: not given, higher = stronger binding	normalised enrichment score	7.26
PhoQ, residues 284 288 289 292 302 303 TNSAEL	PhoP, residues 12 14 15 18 19 LHATL (Escherichia coli, UniProt P23836)	Sort-seq, item: YFP reporter	E. coli	PhoQ-PhoP variant library, together with: 10 µM Mg2+	relative to: high Mg2+ state, higher = stronger signaling	fold induction	24
